# Assay results pooled from the literature.
# Every numbered part comes from another study and shows a few of its results, in no order. Substitutions count along the parent as printed.

# Block 1
# Target: TAR DNA-binding protein 43, full length, His tag (TARDBP, Homo sapiens, UniProt Q13148, residues 1-414)
# Technique: RNA Bind-n-Seq
# Form: RNA
# Matrix: in vitro
# Concentration: 20 nM
# Setting: 6-mer, flanks averaged, single round
# Added: 150 mM KCl
# Baseline: input library
# Direction: higher = stronger binding
Strand,6-mer enrichment (R)
CUGGUC,0.729
UCUACC,0.553
CUGCCC,0.644
UAAUAC,0.65
CCCGAU,0.634
AGUCUC,0.578
CUGUCC,0.627
GCGACA,0.965

# Block 2
# Target: Prothrombin, mature alpha-thrombin (F2, Homo sapiens, UniProt P00734)
# Technique: aptamer microarray, sandwich
# Form: DNA with 2'F-ANA
# Matrix: in vitro
# Concentration: 200 nM
# Setting: whole 15-mer aptamer, many near background
# Added: Cy3 exosite-II aptamer, 400 nM
# Direction: higher = stronger binding
# Strand: GGTTGGTGTGGTTGG
Modification,mean fluorescence intensity
2'F-ANA at 1 4 9 11 13 14,56 a.u.
2'F-ANA at 4 7 10 11 13 14 15,67.5 a.u.
2'F-ANA at 3 6 11 14 15,535 a.u.
2'F-ANA at 1 8 10 11 14 15,45.1 a.u.
2'F-ANA at 1 3 5 7 11 12 14 15,50.8 a.u.
2'F-ANA at 1 2 4 5 11 13 14,50.7 a.u.
2'F-ANA at 1 4 11 12 13,182 a.u.
2'F-ANA at 2 4 5 9 13 14 15,43.9 a.u.

# Block 3
# Target: Runt-related transcription factor 1, full length (RUNX1, Homo sapiens, UniProt Q01196-8, residues 1-480)
# Technique: protein-binding microarray
# Form: hairpin DNA
# Matrix: in vitro
# Concentration: not given
# Setting: whole hairpin DNA, median over replicate spots
# Baseline: not given
# Direction: higher = stronger binding
Strand,median fluorescence
GAGGCCCGTCGCGGTTGGCCTCCTGGCCAACCGCGACGGGCCTCACACTC,2670 a.u.
GAGGCCCAACCGCAACGGCCTCCTGGCCGTTGCGGTTGGGCCTCACACTC (5mC at 16),6710 a.u.
GAGGCCTGTCGCGGTTGGCCTCCTGGCCAACCGCGACAGGCCTCACACTC (5mC at 10 12 32 34),1970 a.u.
CTCAGTTCTCGGGGCTGGACTCCTGTCCAGCCCCGAGAACTGAGACACTC (5mC at 34),1690 a.u.
GAGGCCTGTCGCGGCGGGCCTCCTGGCCCGCCGCGACAGGCCTCACACTC,2130 a.u.
GAGGCCCAACCGCAGCAGCCTCCTGGCTGCTGCGGTTGGGCCTCACACTC,4400 a.u.
CTCAGTTCTGTGAGCTGGACTCCTGTCCAGCTCACAGAACTGAGACACTC,1570 a.u.
CTCAGTTCTGTGGGCCGGACTCCTGTCCGGCCCACAGAACTGAGACACTC (5mC at 16),1880 a.u.

# Further values, each from its own experiment
# Starting sequence: viral docking peptide; KGVKRKLFAEDSS; partner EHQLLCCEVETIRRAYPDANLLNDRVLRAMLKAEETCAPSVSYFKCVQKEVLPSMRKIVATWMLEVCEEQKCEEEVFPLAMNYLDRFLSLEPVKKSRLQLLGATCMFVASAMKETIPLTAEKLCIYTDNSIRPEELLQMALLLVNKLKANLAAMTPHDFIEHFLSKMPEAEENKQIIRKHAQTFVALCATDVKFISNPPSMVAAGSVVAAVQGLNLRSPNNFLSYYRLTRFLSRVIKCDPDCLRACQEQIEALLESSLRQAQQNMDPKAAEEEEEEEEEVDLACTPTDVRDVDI
Substitution,target,assay,system,conditions,scale,quantity,result
E10F,"CCND1, cyclin fold, Cln2 fusion (human)","yeast growth competition, sequencing",yeast,strong parent motif,"baseline: not given, higher = stronger binding",normalised enrichment score,0.474

# Some of these lines once more (block 2):
Modification,mean fluorescence intensity
2'F-ANA at 1 2 4 5 11 13 14,50.7 a.u.
2'F-ANA at 1 8 10 11 14 15,45.1 a.u.
2'F-ANA at 2 4 5 9 13 14 15,43.9 a.u.
2'F-ANA at 4 7 10 11 13 14 15,67.5 a.u.
